Assay results pooled from the literature.
Each numbered part is a random draw from the data of one study; scales do not carry over between parts. Positions count from the first letter of the parent shown.
UniProt Q9ZTX9, sequence (whole entry, looked up): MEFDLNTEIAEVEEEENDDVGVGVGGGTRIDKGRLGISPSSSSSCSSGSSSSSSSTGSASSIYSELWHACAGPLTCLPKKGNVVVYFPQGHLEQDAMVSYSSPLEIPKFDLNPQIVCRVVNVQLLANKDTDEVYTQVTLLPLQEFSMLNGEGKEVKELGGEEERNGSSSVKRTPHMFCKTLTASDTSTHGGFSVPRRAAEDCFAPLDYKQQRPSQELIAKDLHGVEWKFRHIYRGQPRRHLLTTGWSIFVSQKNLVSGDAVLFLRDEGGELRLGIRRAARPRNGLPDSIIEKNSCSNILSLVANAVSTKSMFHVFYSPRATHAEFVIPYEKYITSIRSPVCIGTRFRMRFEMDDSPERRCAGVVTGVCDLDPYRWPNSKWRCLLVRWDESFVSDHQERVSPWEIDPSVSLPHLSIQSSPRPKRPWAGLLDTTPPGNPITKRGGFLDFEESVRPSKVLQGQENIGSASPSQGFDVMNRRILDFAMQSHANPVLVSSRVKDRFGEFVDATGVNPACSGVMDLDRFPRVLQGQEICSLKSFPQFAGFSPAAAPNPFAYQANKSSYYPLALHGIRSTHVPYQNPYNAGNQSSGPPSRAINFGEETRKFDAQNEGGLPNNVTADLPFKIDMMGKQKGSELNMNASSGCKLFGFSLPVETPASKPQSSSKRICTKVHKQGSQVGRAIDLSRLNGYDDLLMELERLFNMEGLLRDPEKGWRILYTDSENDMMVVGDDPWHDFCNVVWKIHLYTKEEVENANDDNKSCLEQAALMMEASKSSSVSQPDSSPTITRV
UniProt Q9M1R4, sequence (whole entry, looked up): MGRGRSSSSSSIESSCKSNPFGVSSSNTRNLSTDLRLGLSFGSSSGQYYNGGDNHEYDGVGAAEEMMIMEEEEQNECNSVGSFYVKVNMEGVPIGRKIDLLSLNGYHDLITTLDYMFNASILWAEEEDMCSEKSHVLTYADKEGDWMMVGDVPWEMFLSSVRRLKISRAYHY
UniProt O23661, sequence (whole entry, looked up): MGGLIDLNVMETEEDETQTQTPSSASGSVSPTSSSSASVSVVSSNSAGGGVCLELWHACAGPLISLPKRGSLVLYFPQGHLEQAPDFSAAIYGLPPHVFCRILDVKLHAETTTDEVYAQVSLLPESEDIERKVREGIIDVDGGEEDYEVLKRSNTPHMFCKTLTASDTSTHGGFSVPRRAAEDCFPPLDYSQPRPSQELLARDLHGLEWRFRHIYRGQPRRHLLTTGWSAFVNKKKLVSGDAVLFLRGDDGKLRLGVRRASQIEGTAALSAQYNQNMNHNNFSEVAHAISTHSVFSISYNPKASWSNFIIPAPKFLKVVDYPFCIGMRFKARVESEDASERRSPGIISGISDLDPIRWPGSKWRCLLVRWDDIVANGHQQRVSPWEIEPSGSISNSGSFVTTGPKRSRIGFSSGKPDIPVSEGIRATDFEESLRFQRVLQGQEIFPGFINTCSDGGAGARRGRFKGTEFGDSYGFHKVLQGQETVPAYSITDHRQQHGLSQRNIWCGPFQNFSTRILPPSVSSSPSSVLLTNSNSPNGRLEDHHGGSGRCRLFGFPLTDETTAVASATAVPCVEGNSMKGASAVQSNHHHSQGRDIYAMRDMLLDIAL
UniProt Q38830, sequence (whole entry, looked up): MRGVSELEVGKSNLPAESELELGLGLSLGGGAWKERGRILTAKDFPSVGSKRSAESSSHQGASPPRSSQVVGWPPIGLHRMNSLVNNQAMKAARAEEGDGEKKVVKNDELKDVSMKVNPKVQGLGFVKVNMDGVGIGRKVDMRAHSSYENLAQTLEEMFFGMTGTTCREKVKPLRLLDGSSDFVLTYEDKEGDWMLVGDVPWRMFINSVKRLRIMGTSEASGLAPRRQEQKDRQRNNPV
UniProt Q84WU6, sequence (whole entry, looked up): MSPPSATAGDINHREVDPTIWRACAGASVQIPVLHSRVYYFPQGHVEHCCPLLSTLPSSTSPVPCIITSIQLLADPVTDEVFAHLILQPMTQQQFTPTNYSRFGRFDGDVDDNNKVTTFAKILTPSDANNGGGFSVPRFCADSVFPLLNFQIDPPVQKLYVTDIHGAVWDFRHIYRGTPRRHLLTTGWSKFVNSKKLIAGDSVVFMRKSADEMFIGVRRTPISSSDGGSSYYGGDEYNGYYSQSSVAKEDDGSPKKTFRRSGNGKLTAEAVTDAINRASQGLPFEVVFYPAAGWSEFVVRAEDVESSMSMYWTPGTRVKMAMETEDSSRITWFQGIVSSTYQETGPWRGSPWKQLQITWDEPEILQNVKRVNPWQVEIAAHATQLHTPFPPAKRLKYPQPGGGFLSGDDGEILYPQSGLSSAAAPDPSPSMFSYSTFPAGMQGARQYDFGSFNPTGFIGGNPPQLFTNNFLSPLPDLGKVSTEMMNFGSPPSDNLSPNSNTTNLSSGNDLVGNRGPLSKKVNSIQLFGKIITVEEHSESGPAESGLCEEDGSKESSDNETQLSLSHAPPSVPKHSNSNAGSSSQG
UniProt P93022, sequence (whole entry, looked up): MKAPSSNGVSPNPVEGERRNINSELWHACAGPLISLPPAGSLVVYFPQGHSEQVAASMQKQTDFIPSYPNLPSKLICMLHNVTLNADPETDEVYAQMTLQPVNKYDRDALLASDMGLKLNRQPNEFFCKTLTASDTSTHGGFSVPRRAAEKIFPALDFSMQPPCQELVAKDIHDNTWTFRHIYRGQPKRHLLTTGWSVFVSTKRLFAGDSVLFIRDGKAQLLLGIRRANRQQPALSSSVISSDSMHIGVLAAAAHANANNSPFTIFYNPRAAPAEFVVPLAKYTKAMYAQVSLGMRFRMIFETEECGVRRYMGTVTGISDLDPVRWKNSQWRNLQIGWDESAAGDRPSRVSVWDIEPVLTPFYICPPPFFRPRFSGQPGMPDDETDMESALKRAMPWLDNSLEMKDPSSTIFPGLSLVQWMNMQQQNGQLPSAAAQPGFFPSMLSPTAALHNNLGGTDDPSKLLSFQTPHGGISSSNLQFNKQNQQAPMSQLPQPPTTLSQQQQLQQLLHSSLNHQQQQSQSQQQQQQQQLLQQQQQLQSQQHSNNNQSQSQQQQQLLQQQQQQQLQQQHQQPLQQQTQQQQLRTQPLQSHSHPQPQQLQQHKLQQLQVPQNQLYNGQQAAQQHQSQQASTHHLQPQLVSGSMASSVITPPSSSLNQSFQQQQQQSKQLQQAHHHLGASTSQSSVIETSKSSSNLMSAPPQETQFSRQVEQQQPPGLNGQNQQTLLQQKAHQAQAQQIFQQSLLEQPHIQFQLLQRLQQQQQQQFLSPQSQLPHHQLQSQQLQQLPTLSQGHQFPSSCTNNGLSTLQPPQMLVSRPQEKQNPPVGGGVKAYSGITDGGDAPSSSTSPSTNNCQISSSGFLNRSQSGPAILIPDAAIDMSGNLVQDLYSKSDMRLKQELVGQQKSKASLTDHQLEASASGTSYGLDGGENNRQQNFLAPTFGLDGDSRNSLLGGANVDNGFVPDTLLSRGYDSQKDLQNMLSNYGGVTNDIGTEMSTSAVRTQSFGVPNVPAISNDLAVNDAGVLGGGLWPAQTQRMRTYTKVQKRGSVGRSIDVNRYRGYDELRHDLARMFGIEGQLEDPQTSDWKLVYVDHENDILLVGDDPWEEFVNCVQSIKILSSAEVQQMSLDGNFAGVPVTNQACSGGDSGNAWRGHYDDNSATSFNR

Sample 1
Target: CCNA1, cyclin fold, Cln2 fusion (human)
Technique: yeast growth competition, sequencing
Sample: yeast
Notes: weak parent motif
Baseline: not given
Direction: higher = stronger binding
Starting sequence: SAMHD1 docking peptide (human); ASKSRVQLFKDDP
Variant	normalised enrichment score
D11T	0.126
L8Y	0.161
D12F	-0.221
S4W	0.0291
S2Y	0.59
Q7W	-0.0496
S2N	0.365
F9S	0.475
Q7Y	0.478
D11A	-0.0976
S4M	0.496
K10M	0.116
D11I	0.125
D12M	0.344
R5L	-0.084
Q7V	0.115
S2T	0.43
F9L	0.646

Sample 2
Target: PABPC1L2, full length, GST fusion (mouse, UniProt A0ABA7IW68)
Technique: RNAcompete
Form: RNA
Sample: in vitro
Tested at: 20 nM
Notes: 7-mer, probes averaged, single round
Baseline: mean of 7-mers
Direction: higher = stronger binding
Construct (chain): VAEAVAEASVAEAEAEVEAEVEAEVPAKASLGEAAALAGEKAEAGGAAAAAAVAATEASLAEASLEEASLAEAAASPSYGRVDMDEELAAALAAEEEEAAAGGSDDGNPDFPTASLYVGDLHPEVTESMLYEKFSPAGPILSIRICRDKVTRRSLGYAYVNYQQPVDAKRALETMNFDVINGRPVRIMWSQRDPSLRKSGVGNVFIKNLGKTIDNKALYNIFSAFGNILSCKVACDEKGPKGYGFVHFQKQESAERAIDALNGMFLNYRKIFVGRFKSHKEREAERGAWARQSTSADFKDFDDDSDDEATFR
Sequence	7-mer Z-score
UUACCGA	-0.182
CCGAGGG	-0.079
UGUGGUG	-0.166
CAUCGAC	-0.13
GCUUGAA	-0.0953
AACACCG	0.461
AAUGCUA	0.037
CUUGUGG	-0.199
UUUGUCG	-0.46
GCCGCGG	-0.374
UUCCCCU	-0.425
ACAGCGC	-0.0264
CGGUCCA	-0.161
GUCAAGG	-0.117
CCCUCAG	-0.264
GUCGCGA	-0.262
CAUGACG	-0.211
GGUUCGU	-0.4
GGGAACA	0.325
UGAAGCC	-0.121
UCUCUAA	-0.175
AGACAUG	-0.0047
UUGAAAA	2.63
AAAGAAU	2.03
UUGGCGC	-0.313

Sample 3
Molecule: B1 (IAA10)
Technique: two-hybrid
Direction: higher = firmer interaction
B1: IAA10 (Arabidopsis thaliana, UniProt Q38828); chain MNGLQEVCSSSGSVMIGLPAEEDENAAHSSEDSSCPDESVSETELDLALGLSIGRRKVRSSLSSSSSSLTRESGTKRSADSSPAAASNATRQVAVGWPPLRTYRINSLVNQAKSLATEGGLSSGIQKETTKSVVVAAKNDDACFIKSSRTSMLVKVTMDGVIIGRKVDLNALDSYAALEKTLDLMFFQIPSPVTRSNTQGYKTIKETCTSKLLDGSSEYIITYQDKDGDWMLVGDVPWQMFLGSVTRLRIMKTSIGAGVGK
partner	conditions	scale	positive tests
IAA12 (Arabidopsis thaliana, UniProt Q38830)	–	baseline: out of 4 tests	1
ARF4 660-788 (Arabidopsis thaliana, UniProt Q9ZTX9)	–	baseline: out of 4 tests	1
ARF7 1030-1164 (Arabidopsis thaliana, UniProt P93022)	–	baseline: out of 4 tests	2
IAA30 (Arabidopsis thaliana, UniProt Q9M1R4)	weak activation fusion	baseline: out of 4 tests	2
ETT (Arabidopsis thaliana, UniProt O23661)	–	baseline: out of 2 tests	0
ARF17 (Arabidopsis thaliana, UniProt Q84WU6)	weak activation fusion	baseline: out of 3 tests	0

Sample 4
Target: ABI1, truncated, D143A, DHFR fusion (Arabidopsis thaliana)
Technique: DHFR PCA, deep sequencing
Sample: yeast
Notes: methotrexate growth selection, single substitutions
Added: (+)-ABA 0.39 µM
Baseline: wild-type fitted maximum
Direction: higher = stronger binding
Starting sequence: PYL1, truncated, DHFR fusion (Arabidopsis thaliana); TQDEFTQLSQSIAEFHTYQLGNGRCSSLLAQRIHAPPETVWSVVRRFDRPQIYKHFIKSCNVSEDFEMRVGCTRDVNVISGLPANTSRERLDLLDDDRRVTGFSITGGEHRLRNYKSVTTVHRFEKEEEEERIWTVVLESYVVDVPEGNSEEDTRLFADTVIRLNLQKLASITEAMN
Variant	relative binding score
D153F	-12.9%
R32Y	29.8%
S26D	-17%
G23M	16.6%
L112P	8.03%
T17M	12.3%
P36C	13.2%
G107K	-6.59%
K58Q	24.7%
S104V	3.07%
R111I	3.51%
S42E	48.4%
L28C	17.2%
Q167R	61.7%
F5N	1.42%
K116F	-7.28%
A175G	50.3%
S117W	-11.3%
R98A	8.95%
S140M	-11.4%
H55G	45.2%
N177D	15.6%
L169A	-11%
E139M	0.777%
N114P	-17.3%

Sample 5
Target: RING finger protein unkempt homolog, zinc fingers 1-6, GST-SBP tag (UNK, Homo sapiens, UniProt Q9C0B0, residues 30-357)
UniProt Q9C0B0, sequence (30-357, looked up): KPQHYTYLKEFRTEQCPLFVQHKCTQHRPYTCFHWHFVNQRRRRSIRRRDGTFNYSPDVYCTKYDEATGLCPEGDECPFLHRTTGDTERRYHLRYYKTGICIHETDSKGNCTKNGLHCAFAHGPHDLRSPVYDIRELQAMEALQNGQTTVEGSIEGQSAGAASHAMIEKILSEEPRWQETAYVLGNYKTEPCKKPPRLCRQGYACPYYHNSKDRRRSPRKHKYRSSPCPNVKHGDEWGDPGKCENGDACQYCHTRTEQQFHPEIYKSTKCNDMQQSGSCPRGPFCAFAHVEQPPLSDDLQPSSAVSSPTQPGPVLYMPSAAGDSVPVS
Technique: RNA Bind-n-Seq
Form: RNA
Sample: in vitro
Tested at: not given
Notes: RNA with constant flanks, human and mouse sites, ends assumed
Baseline: input RNA pool
Direction: higher = stronger binding
Shared flanks, not repeated: GGGAGUUCUACAGUCCGACGAUC … CAACAGAGGAUUGAGCAUCA
Sequence	bound/input enrichment
CUGAACAAAAUUACAAAGAAUCUAGGAUUUGGGAUGGGAAUUGAAUUCCGUGAAGGCUCUCUAGUAAUCAAUAGUAAAAAUCAGUACAAGCUAAAGAAAGGGAUGGUUUUUAGCAUCAAU	61.5 ratio
GAAACCAAGUAUCUUUUACCAAGUCUGGAAAAAGAAUUAUUCUUGGCAGAGCACAGUGAUCUUGAAGAAGGUGGACUGGAUCUGAAUGUCUCCUUAAAACCUGUUAGUUUCUAUAUAUCA	1.48 ratio
GGAGGGUUUAUUAGAGGUCUAGUAGCCCAGAUCUGCCGCAGUGGACUACUCCAAGGAUAUGAGGACAAGCUAAGGGAUCCAGCAGUCCAAAGCCUCUUACAGCCUGGGGAGUGCGAGAGA	0.343 ratio
ACUCCAGAGCAAAGAGGACCAAGGCUGGACCCCGACACCGAGACACCUCAGUUGAAUAAAACUGUCAGCAUAAAACGACGGGACUCCUAUCUGAGCUGCAAGACAGAGGCCGUGUCUACC	0.132 ratio
GGAGACAACAAACAAACCACUGUGUCGAACUCCCAGCAGGCUUACCAGGAAGCAUUUGAAAUUAGUAAGAAAGAAAUGCAGCCUACACACCCAAUUCGUCUUGGUCUGGCACUAAAUUUC	0.327 ratio
UUUGCCACCCCGAGGAACAGCAGCUCAGCUUCAUUGAGCGCCUGGUGGAGAUGGCCAGCAGCUUGGCUAUCCGUGAGUGGAGGCGGCUGCCCCACGUGGUGUCCCAUGUGCAUACACCUC	0.142 ratio
GGCUGCUGAUUGUGUUCUAAGGGUCGGAGUGGGGUCGACGUUUGCUCUACCGGAACAGCUUAGCUCAUUCCUCCCUUUCCAUUACCUGUGGCGCGGAGAGUUGGGGCGGCGGCUGCGUCA	0.115 ratio
GUGAUGUUACUCUCCAUUUUUGGUACCAGUUCUGAGACUGUAAGACUUUUCAUCUGGGACUUUAGCACACACUGAAUCGAAGUUGUGAUACGCGGAGCGGGAGGUGGGCAUAGACUCUAU	0.443 ratio
GACGUUAAAAAUUUUCUGUAUGCCUGGUGUGGCAAAAGGAAGAUGACCCCAUCCUAUGAAAUUAGAGCAGUGGGGAACAAAAACAGGCAGAAAUUCAUGUGUGAGGUUCAGGUGGAAGGU	0.301 ratio
UAUUUUGCUCCUAUACCAUCGGAAGACCAUGCUGAAAAUAAAGUGGACAUUUUAGAAAUGCUACAGAAAGCCAAAGUAGAUUUAAAACCUCUUCUUUCUAGCCUUUCUGCAAAUAAAGAA	0.336 ratio
GAGGGAAACGCCUCCGUCUCUAUAUAAGGAAUUUUCCGGUCUCUUCGGGUCCUUUUUCCUCUCUUCAGCGUGGGGCGCCCACAAUUUGCGCGCUCUCUUUCUGCUGCUCCCCAGCUCUCG	0.239 ratio

Some of these lines once more (sample 2):
Sequence	7-mer Z-score
GCCGCGG	-0.374
CAUGACG	-0.211
CCGAGGG	-0.079
UGUGGUG	-0.166
AACACCG	0.461
UGAAGCC	-0.121
CAUCGAC	-0.13
UUUGUCG	-0.46
AGACAUG	-0.0047
CUUGUGG	-0.199
GGUUCGU	-0.4
